# Measurements pooled from the literature.
# A part holds a random share of what one study measured.

# Study 1
# Target: Receptor tyrosine-protein kinase erbB-2 (ERBB2, Homo sapiens, UniProt P04626)
# Read-out: enzyme activity
# Action: inhibitor
# Concentration: 0.5 µM
# Baseline: control
SMILES,remaining activity [%]
Cc1ccc(NC2=CC(=O)c3sc(C)nc3C2=O)cc1,94.2
O=C1NC(=O)C(c2c[nH]c3ccccc23)=C1c1c[nH]c2ccccc12,94.3
CC(=O)c1ccc(N2CCOCC2)cc1O,98.2
Cc1cc(Nc2nc(-c3ccccc3)nc3ccccc23)n[nH]1,108
N#CC(=C(N)Sc1ccc(N)cc1)c1ccccc1C(F)(F)F,93
O=C1Cc2c([nH]c3ccc([N+](=O)[O-])cc23)-c2ccccc2N1,94.8
CC(C)(C)n1nc(Cc2cccc3ccccc23)c2c(N)ncnc21,109
Nc1ncnc2c1cnn2-c1ccccc1,107
CSc1nc(-c2ccnc(N[C@@H](C)c3ccccc3)c2)c(-c2ccc(F)cc2)[nH]1 (racemic),99.2
O=S(=O)(NCCNC/C=C/c1ccc(Br)cc1)c1cccc2cnccc12,119
COc1ccc(S(=O)(=O)N(CCO)c2ccccc2CN(C)CC=Cc2ccc(Cl)cc2)cc1,97.8
Fc1ccc(-c2nc3n(c2-c2ccncc2)CCS3)cc1,105
Nc1nccc(-c2c(-c3ccc(F)cc3)ncn2C2CCNCC2)n1,93.7
Cc1cncc2cccc(S(=O)(=O)N3CCCN(C(=O)CN)C[C@@H]3C)c12,99.7
CCCC(=O)Oc1ccc2[nH]c(C(=O)c3cc4ccccc4[nH]3)cc2c1,85.9
NC(=O)c1ccc(N(C(N)=O)c2c(F)cccc2F)nc1-c1ccc(F)cc1F,106
Oc1ccc(Nc2nc(-c3ccc(Cl)cc3)cs2)cc1,96.9
CCc1[nH]c(-c2ccc(OC)cc2)nc1-c1ccncc1,98.9
CC[n+]1c(/C=C/N(C)c2ccccc2)n(-c2ccccc2)c2ccc(-c3nc4ccccc4s3)cc21,92

# Study 2
# Organism: Sarcocystis neurona
# Read-out: parasite growth
# Concentration: 10 µM
# Notes: secondary screen
SMILES,inhibition [%]
CCCN(CCC)S(=O)(=O)c1ccc(C(=O)O)cc1,-27.7
NS(=O)(=O)c1cc2c(cc1C(F)(F)F)NCNS2(=O)=O,-28.3
O=C(O)COCCN1CCN([C@H](c2ccccc2)c2ccc(Cl)cc2)CC1,-46.6
CC(c1cc2ccccc2s1)N(O)C(N)=O (stereo not shown),-66.1
Oc1ccc(C2CNCCc3c2cc(O)c(O)c3Cl)cc1 (stereo not shown),-47.2
O=C1CC[C@@H](C(=O)N2CSC[C@H]2C(=O)O)N1,-32.5
COc1ccccc1OCCNCC(O)COc1cccc2[nH]c3ccccc3c12 (stereo not shown),17.7
OC[C@H]1O[C@@H](n2cnc3c(NC4CCCC4)nc(Cl)nc32)[C@H](O)[C@@H]1O,-38.4
CCC(=O)O[C@]1(C(=O)CCl)[C@@H](C)C[C@H]2[C@@H]3CCC4=CC(=O)C=C[C@]4(C)[C@@]3(F)[C@@H](O)C[C@@]21C,-9
CC(C)(O)c1ccccc1CC[C@@H](SCC1(CC(=O)O)CC1)c1cccc(/C=C/c2ccc3ccc(Cl)cc3n2)c1,-31
CCCCC(=O)N(Cc1ccc(-c2ccccc2-c2nnn[nH]2)cc1)[C@H](C(=O)O)C(C)C,-51
CCC[C@@H]1C[C@@H](C(=O)N[C@@H]([C@H]2O[C@H](SC)[C@H](O)[C@@H](O)[C@H]2O)[C@@H](C)O)N(C)C1,5.6
C#C[C@]1(O)CC[C@H]2[C@@H]3CCC4=Cc5oncc5C[C@]4(C)[C@H]3CC[C@@]21C,14.2
COC(=O)Nc1nc2cc(C(=O)c3ccc(F)cc3)ccc2[nH]1,7.4
CN1CCN(CC/C=C2/c3ccccc3Sc3ccc(S(=O)(=O)N(C)C)cc32)CC1,45.4
Cc1c(OCC(F)(F)F)ccnc1C[S+]([O-])c1nc2ccccc2[nH]1 (stereo not shown),-193
N[C@@H](C(=O)N[C@@H]1C(=O)N2C(C(=O)O)=C(Cl)CS[C@H]12)c1ccccc1,-44.8
C#C[C@]1(O)CC[C@H]2[C@@H]3CCc4cc(OC)ccc4[C@H]3CC[C@@]21C,-84
COC1=C(OC)C(=O)C(CCCCCCCCCCO)=C(C)C1=O,-22.8
O=C(O)C[C@H](O)C[C@H](O)/C=C/c1c(C2CC2)nc2ccccc2c1-c1ccc(F)cc1,-8.4

# Study 3
# Cell line: A-375
# Concentration: 100 µM
# Time: 36 h
SMILES,viability [%]
N#C[C@@H]1C[C@@H]2C[C@@H]2N1C(=O)[C@@H](N)C12CC3CC(CC(O)(C3)C1)C2,109
C#C[C@]1(O)CC[C@H]2[C@@H]3CCC4=CC(=O)CC[C@@H]4[C@H]3C(=C)C[C@@]21CC,62.5
CC1(C)NC(=O)N(c2ccc([N+](=O)[O-])c(C(F)(F)F)c2)C1=O,77.8
C[C@@H](O)[C@H]1C(=O)N2C(C(=O)O)=C(SCCN=CN)C[C@H]12,95.1
NC[C@@H]1O[C@H](O[C@H]2[C@@H](O)[C@H](O[C@@H]3[C@@H](O)[C@H](N)C[C@H](N)[C@H]3O[C@H]3O[C@H](CO)[C@@H](O)[C@H](O)[C@H]3N)O[C@@H]2CO)[C@H](N)[C@@H](O)[C@@H]1O,91.2
CC(C)NCC(O)COc1ccc(CCOCC2CC2)cc1 (stereo not shown),111
O=C(Nc1ccccc1)c1ccccc1O,20.4
CC1=C(/C=C/C(C)=C/C=C/C(C)=C\C(=O)O)C(C)(C)CCC1,43.8
COc1c(N2C[C@@H]3CCCN[C@@H]3C2)c(F)cc2c(=O)c(C(=O)O)cn(C3CC3)c12,99.3
Nc1nccs1,117
CCCCOc1cc(C(=O)OCCN(CC)CC)ccc1N,57.7
Nc1ccn([C@@H]2O[C@H](CO)[C@@H](O)C2(F)F)c(=O)n1,23.3
COc1ccc2[nH]c([S+]([O-])Cc3ncc(C)c(OC)c3C)nc2c1 (stereo not shown),22
NS(=O)(=O)c1cc2c(cc1Cl)N=CNS2(=O)=O,111
CCCCCCCCOc1ccccc1C(=O)Nc1ccc(C(=O)OCC[N+](C)(CC)CC)cc1,0.0769
CC(C)NCC(O)c1cc(O)cc(O)c1 (stereo not shown),103
CC(=O)N(CC(O)CO)c1c(I)c(C(=O)NCC(O)CO)c(I)c(C(=O)NCC(O)CO)c1I (mixture of isomers),111
CN1C2=CC(=O)/C(=N\NC(N)=O)C=C2CC1S(=O)(=O)O (stereo not shown),111
O=C(/C=C/c1cccc(S(=O)(=O)Nc2ccccc2)c1)NO,12.1
NC(=O)Cc1cccc(C(=O)c2ccccc2)c1N,81
O=c1cc(-c2ccc(O)cc2)oc2cc(O)cc(O)c12,24.7
CC(=O)CCCCn1c(=O)c2c(ncn2C)n(C)c1=O,111

# Study 4
# Cell line: normal adjacent epithelium patient-derived organoids
# Technique: CellTiter-Glo
# Concentration: 1 µM
# Notes: mean of five organoid lines
# Baseline: DMSO
SMILES,viability [%]
O=c1nc(-c2ccccn2)sc2ccccc12,102
Cc1cnc(-c2cc(Cl)ccc2F)cc1-n1c(=O)n(CC(N)=O)c2cnccc21,118
CCCCN(CCCC)C(=O)CN1C[C@@H](c2cc(OC)c3c(c2)OCO3)[C@H](C(=O)O)[C@H]1CC(C)(C)CCC,112
O=C(O)[C@@H]1[C@@H](Cn2nnc3ccccc3c2=O)CC[C@H]1C(=O)c1ccc(OCCC2CCOCC2)cc1,113
O=C1NC(c2ccccn2)Sc2ccccc21 (stereo not shown),105
CC1=C(C#N)C(c2ccc3[nH]nc(C)c3c2)C(C#N)=C(C)N1,110
CCc1ccccc1C(=O)Nc1n[nH]c2c(C)c(F)c(C3C(C#N)=C(C)N(C)C(C)=C3C#N)cc12,82.5
CC(=O)N1CCC(c2ccc(C(=O)NC(=N)N)cc2C(F)(F)F)CC1,104
CN(C)CC#Cc1ccc(OCCCc2sc(N3CCc4cccc(C(=O)Nc5nc6ccccc6s5)c4C3)nc2C(=O)O)c(F)c1,67.3
O=C(N1CCS(=O)(=O)CC1)N1C[C@H](c2ccc(OC(F)(F)F)cc2)C[C@H](c2nc(C3CC3)no2)C1,109
Cn1c(-c2csc(C3CCN(Cc4nc5ncccc5[nH]4)CC3)n2)nc2ccccc21,106
O=C(O)c1cc(-c2ccc(C3CCNCC3)cc2)c2ccc(-c3ccc(C(F)(F)F)cc3)cc2c1,108
Cn1cc(Cl)c2c(Oc3c(F)cc(Nc4cc(Cl)nc(N)n4)cc3F)ccnc21,124
c1ccc2oc(-c3csc(C4CCN(Cc5nc6ncccc6[nH]5)CC4)n3)cc2c1,46.1
CN([C@@H]1CCc2c(CC(=O)O)c3ccccc3n2C1)S(=O)(=O)c1ccc(F)cc1,112
CC(=O)c1c(NS(C)(=O)=O)c2cc(-c3ccc(Cl)cc3)c(-c3ccc(Cl)cc3Cl)nc2n(C)c1=O,104
Cc1c(Oc2ccc(F)cc2)c(OC(C)C)nn1-c1ccc(C2CC2)cn1,118
CNCc1ccccc1-c1csc([C@@H](C)Nc2nc(C)nc3cc(OC)c(OC)cc23)c1,71.1
Cc1cc(NC(=O)c2cccc(S(F)(F)(F)(F)F)c2)cc(-n2ccn3nc(-c4cccnc4)cc23)c1,95.1
CN(C)c1ncnc(-c2ccc3nc(Nc4cc(CN5CCN(C(=O)CC(F)(F)F)CC5)ccn4)[nH]c3c2)c1Cl,94.2
Cc1nc(N2CC[C@@H](O)C2)ncc1-c1cc(C(F)(F)F)cc2[nH]ncc12,96.6
CCNC(=O)c1cc2c(N3CCOC[C@@H]3C)ccnc2[nH]1,110
O=C(NCCN1CCOCC1)c1ccc2c(c1)C(=O)c1ccc(Nc3ccc(F)c(NC(=O)c4ccccc4)c3)cc1CC2,85
Cc1c(N2CCCC2)nc2ccc(Br)cc2c1C(=O)NC[C@H](CCC(=O)O)c1ccccc1Cl,107

# Excerpt of the above (study 1):
SMILES,remaining activity [%]
NC(=O)c1ccc(N(C(N)=O)c2c(F)cccc2F)nc1-c1ccc(F)cc1F,106
Nc1ncnc2c1cnn2-c1ccccc1,107
N#CC(=C(N)Sc1ccc(N)cc1)c1ccccc1C(F)(F)F,93
O=S(=O)(NCCNC/C=C/c1ccc(Br)cc1)c1cccc2cnccc12,119
Cc1cncc2cccc(S(=O)(=O)N3CCCN(C(=O)CN)C[C@@H]3C)c12,99.7
CC(C)(C)n1nc(Cc2cccc3ccccc23)c2c(N)ncnc21,109
CSc1nc(-c2ccnc(N[C@@H](C)c3ccccc3)c2)c(-c2ccc(F)cc2)[nH]1 (racemic),99.2
Oc1ccc(Nc2nc(-c3ccc(Cl)cc3)cs2)cc1,96.9
CCCC(=O)Oc1ccc2[nH]c(C(=O)c3cc4ccccc4[nH]3)cc2c1,85.9
